Measurements collected from several papers.
“And” joins repeats or separate records; there may be more than shown. ± gives the spread as reported.
Oprk1: Kappa-type opioid receptor (Oprk1, Rattus norvegicus, UniProt P34975)
Sequence of UniProt P34975 (whole entry, looked up): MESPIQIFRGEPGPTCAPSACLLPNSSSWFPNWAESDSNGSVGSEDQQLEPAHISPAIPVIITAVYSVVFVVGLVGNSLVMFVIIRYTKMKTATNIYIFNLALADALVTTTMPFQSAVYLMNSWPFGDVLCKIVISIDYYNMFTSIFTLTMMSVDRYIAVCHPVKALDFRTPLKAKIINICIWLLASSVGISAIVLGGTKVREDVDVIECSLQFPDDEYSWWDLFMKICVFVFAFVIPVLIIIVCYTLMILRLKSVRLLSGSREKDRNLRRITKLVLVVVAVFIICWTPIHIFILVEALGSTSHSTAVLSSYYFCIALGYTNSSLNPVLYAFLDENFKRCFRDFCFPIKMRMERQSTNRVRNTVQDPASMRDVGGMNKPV
USP7: Ubiquitin carboxyl-terminal hydrolase 7 (USP7, Homo sapiens, UniProt Q93009)
Sequence of UniProt Q93009 (whole entry, looked up): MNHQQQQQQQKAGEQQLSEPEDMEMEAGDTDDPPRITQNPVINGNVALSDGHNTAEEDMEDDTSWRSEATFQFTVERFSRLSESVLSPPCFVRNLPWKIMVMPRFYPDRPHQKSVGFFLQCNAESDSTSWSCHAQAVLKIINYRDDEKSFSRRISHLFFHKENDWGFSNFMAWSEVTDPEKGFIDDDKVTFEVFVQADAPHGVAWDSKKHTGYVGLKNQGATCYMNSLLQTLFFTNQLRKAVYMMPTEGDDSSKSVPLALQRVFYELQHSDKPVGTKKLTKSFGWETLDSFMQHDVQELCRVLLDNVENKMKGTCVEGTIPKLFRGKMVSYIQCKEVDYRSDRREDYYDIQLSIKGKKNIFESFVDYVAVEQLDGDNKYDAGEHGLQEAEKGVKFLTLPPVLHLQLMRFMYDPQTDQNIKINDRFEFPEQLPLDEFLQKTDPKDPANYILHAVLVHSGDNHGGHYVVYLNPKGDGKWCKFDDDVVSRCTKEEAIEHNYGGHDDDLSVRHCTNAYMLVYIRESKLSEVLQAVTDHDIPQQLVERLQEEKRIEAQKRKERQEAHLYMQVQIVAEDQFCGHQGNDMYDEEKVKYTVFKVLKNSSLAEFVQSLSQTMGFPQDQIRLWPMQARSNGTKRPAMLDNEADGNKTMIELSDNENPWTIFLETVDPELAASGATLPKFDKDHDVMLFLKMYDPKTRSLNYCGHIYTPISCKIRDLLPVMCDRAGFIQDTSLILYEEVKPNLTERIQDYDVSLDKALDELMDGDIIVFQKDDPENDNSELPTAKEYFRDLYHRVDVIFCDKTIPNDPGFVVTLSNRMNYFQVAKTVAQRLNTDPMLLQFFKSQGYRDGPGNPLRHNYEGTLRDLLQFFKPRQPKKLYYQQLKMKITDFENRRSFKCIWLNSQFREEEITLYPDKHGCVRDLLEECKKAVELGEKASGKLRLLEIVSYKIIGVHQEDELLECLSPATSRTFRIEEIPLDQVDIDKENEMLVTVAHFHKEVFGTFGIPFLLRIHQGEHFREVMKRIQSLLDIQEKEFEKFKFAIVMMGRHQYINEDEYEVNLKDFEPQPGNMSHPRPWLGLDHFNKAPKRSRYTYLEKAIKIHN
ache: Acetylcholinesterase (ache, Electrophorus electricus, UniProt O42275)
Sequence of UniProt O42275 (whole entry, looked up): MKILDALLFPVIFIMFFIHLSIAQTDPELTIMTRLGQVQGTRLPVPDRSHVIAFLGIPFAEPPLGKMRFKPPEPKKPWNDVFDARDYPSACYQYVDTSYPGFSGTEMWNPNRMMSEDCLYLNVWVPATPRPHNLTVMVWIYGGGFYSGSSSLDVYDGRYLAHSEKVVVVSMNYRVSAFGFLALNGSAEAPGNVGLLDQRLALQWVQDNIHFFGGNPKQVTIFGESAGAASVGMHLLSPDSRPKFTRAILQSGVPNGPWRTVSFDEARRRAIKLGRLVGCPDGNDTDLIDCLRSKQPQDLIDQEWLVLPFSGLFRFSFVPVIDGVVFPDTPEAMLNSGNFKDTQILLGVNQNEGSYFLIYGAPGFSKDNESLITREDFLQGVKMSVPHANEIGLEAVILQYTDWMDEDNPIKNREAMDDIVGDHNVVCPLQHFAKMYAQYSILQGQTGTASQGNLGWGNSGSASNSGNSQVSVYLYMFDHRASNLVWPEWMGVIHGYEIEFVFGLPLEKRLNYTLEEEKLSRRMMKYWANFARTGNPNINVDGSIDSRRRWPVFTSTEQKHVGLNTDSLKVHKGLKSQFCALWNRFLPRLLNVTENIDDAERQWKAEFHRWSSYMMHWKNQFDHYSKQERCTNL
Tripartite terminase subunit 3 C-terminal nuclease domain: Tripartite terminase subunit 3, C-terminal nuclease domain (Human betaherpesvirus 5, UniProt P16732)
Sequence of UniProt P16732 (whole entry, looked up): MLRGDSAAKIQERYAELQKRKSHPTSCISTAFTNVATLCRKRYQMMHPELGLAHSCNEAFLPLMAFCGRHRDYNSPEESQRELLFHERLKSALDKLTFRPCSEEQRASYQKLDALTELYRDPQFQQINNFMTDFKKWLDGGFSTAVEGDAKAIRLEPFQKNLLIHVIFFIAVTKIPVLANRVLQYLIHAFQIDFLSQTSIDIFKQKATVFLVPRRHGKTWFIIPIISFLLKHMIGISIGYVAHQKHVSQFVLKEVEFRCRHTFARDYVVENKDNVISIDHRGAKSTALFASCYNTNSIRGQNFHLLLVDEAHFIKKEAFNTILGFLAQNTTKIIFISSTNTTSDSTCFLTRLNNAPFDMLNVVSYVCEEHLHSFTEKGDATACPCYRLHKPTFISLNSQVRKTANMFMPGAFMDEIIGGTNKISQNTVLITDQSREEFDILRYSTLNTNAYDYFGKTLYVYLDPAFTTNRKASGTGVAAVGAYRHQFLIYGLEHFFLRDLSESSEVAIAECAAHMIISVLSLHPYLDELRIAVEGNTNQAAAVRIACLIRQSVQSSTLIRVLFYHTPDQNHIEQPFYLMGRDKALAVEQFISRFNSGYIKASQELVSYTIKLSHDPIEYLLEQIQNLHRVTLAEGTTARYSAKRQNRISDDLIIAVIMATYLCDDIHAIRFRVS
AKR1C2: Aldo-keto reductase family 1 member C2 (AKR1C2, Homo sapiens, UniProt P52895)
Sequence of UniProt P52895 (whole entry, looked up): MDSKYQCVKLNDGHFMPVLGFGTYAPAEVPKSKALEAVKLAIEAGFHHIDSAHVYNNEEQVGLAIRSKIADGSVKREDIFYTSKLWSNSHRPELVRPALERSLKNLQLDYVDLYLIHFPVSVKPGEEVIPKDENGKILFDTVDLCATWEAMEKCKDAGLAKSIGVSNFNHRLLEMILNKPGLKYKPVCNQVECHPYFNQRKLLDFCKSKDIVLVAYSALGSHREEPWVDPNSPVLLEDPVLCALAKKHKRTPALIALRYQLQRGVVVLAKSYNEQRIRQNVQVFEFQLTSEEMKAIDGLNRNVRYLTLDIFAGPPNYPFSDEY
Sequence of UniProt Q99QC1 (whole entry, looked up): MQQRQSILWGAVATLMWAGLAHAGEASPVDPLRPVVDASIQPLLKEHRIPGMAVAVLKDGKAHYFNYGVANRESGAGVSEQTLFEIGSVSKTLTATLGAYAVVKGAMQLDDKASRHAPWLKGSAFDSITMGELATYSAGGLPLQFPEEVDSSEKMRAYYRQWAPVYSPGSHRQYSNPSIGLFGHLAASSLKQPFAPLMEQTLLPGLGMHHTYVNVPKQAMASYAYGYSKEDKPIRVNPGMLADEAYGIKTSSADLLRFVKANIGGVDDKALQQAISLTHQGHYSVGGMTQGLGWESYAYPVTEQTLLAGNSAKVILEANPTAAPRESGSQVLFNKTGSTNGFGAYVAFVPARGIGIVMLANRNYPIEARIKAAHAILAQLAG
Sequence of UniProt Q8NER1 (whole entry, looked up): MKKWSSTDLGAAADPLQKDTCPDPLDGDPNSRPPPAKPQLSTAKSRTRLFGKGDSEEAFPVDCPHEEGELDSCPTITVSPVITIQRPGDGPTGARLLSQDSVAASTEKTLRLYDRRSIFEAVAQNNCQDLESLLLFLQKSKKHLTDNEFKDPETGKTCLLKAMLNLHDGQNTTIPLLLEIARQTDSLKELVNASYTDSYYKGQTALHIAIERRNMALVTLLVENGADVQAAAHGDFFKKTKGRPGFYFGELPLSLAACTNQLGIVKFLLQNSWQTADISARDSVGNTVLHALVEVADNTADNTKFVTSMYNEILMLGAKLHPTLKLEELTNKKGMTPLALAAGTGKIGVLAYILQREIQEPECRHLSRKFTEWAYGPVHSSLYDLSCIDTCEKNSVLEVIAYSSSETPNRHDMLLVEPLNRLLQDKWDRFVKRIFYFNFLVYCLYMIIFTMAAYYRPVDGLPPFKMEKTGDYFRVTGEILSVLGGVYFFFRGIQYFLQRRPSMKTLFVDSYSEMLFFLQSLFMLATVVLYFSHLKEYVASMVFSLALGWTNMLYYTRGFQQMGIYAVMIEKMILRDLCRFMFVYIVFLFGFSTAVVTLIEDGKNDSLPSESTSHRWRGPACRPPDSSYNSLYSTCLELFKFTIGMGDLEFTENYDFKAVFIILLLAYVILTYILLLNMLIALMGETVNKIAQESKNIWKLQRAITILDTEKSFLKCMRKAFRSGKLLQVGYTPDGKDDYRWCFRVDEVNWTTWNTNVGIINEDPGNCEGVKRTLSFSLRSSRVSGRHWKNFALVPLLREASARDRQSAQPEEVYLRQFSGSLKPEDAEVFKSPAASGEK
Sequence of UniProt O14757 (whole entry, looked up): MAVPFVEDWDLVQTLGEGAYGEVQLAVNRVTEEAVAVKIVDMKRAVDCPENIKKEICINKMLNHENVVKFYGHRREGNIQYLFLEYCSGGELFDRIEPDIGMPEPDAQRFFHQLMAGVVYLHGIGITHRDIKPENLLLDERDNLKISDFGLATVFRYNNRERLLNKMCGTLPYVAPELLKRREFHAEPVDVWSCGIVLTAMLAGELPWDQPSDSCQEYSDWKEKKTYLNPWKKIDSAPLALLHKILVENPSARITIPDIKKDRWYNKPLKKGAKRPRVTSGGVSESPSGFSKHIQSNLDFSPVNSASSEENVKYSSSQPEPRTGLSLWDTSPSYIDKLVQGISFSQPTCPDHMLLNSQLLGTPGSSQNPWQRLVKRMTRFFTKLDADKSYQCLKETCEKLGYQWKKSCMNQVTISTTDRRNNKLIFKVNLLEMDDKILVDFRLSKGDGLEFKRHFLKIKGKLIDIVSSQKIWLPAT

SMILES = CC(=O)N(C)[C@@H](Cc1ccccc1)C(=O)N[C@@H](Cc1ccccc1)C(=O)N[C@@H](Cc1ccc(O)cc1)C(=O)N[C@@H](CCCNC(=N)N)C(=O)N[C@@H](CC(C)C)C(=O)N[C@@H](CCCNC(=N)N)C(=O)N[C@@H](CCCNC(=N)N)C(=O)N[C@H](C)C(=O)N[C@@H](CCCNC(=N)N)C(=O)N1CCC[C@H]1C(=O)N[C@@H](CCCCN)C(N)=O; target = Oprk1; assay = adenylyl cyclase activity, agonist; test system = CHO cells; conditions = 10 µM; scale = reference: dynorphin A(1-13) amide; inhibition = > 40%
SMILES = NCC(CCC(N)C(=O)O)CC1OC(n2cnc3c(N)ncnc32)C(O)C1O (centres unmarked); target = CARM1 (Homo sapiens, UniProt Q86X55); assay = enzyme activity, inhibitor; conditions = 20 µM; inhibition = > 50%
SMILES = C=C(C)[C@]12C[C@@H](C)[C@@]34O[C@](Cc5ccccc5)(O[C@@H]1[C@@H]3C=C(COC(=O)Cc1cc(I)c(O)c(OC)c1)C[C@]1(O)C(=O)C(C)=C[C@@H]41)O2; target = TRPV1 (Homo sapiens, UniProt Q8NER1); assay = acid-evoked calcium influx, antagonist; test system = HEK293, human; conditions = 11.25 µM, pH 5; inhibition = 64.4 ± 11.1%
SMILES = COc1cc(-c2oc3cc(O)c(OC)c(O)c3c(=O)c2OC)ccc1O; target = Neutrophil elastase (ELANE, Homo sapiens, UniProt P08246); assay = enzyme activity, inhibitor; conditions = 10 µM; inhibition = 20.3 to 27.1%
SMILES = Cc1ccc(N2CC3CCC(C2)N3C)cc1C(=O)N[C@H](C)c1cc(-c2cnn(C)c2)nc2ccccc12; target = USP7; assay = enzyme activity; conditions = concentration not given; inhibition = no inhibition
SMILES = CC1CCc2nc3ccccc3c(Nc3ccc4ccccc4n3)c2C1 (centres unmarked); target = ache; assay = enzyme activity, inhibitor, Ellman; conditions = 50 µM; inhibition = 27%
SMILES = O=C(Oc1cncc(Cl)c1)c1cccc2[nH]ccc12; target = Cathepsin B (CTSB, Homo sapiens, UniProt P07858); assay = enzyme activity, inhibitor; conditions = concentration not given, together with: Z-Arg-Arg-pNA; inhibition = no inhibition
SMILES = O=C(NCc1cc(F)ccc1F)c1cn(Cc2ccc(F)cc2)cc(O)c1=O; target = Tripartite terminase subunit 3 C-terminal nuclease domain; assay = endonuclease activity, inhibitor, ELISA; conditions = 20 µM; inhibition = 6%
SMILES = FC(F)(F)c1ccc(Nc2c3c(nc4ccccc24)CCCC3)cc1; target = ache; assay = enzyme activity, inhibitor, Ellman; conditions = 50 µM; inhibition = 90.7%
SMILES = Cc1ccc(CNC(=O)c2cn(Cc3ccc(F)cc3)cc(O)c2=O)c(F)c1; target = Tripartite terminase subunit 3 C-terminal nuclease domain; assay = endonuclease activity, inhibitor, ELISA; conditions = 20 µM; inhibition = 8%
SMILES = C[C@@]12CC[C@H]3[C@@H](CCC4=CC(=O)C=C[C@@]43F)[C@@H]1CCC2=O; target = AKR1C2; assay = enzyme activity, inhibitor, absorbance; conditions = 10 µM, pH 9; inhibition = 10.5%
SMILES = CN(C(=N)Nc1cccc2cc3ccccc3cc12)c1cccc(C(F)(F)F)c1; target = NMDA receptor PCP site, rat; assay = binding, inhibitor; test system = brain membranes; conditions = 1.0 µM, together with: [3H]TCP; inhibition = -7.3%
SMILES = C/C(=N\OCCCN1CCCCC1)c1ccc(C(F)(F)F)cc1; target = Sigmar1 (Rattus norvegicus, UniProt Q9R0C9); assay = radioligand binding; conditions = 10 µM; inhibition = 97.8%
SMILES = Oc1cccc2cccnc12; target = 1-deoxy-D-xylulose 5-phosphate reductoisomerase (Escherichia coli K-12, UniProt P45568); assay = enzyme activity, inhibitor, absorbance; conditions = 100 µM; inhibition = 100%
SMILES = COc1ccc(Nc2c3c(nc4ccc(Cl)cc24)CCCC3)nc1; target = ache; conditions = 100 µM; inhibition = 97.6 ± 3.92%
SMILES = C=CCOc1ccc(C[C@H](NC(C)=O)C(=O)N[C@@H](Cc2ccccc2)C(=O)N[C@@H](Cc2ccccc2)C(=O)N[C@@H](CCCNC(=N)N)C(=O)N[C@@H](CC(C)C)C(=O)N[C@@H](CCCNC(=N)N)C(=O)N[C@@H](CCCNC(=N)N)C(=O)N[C@H](C(=O)N[C@@H](CCCNC(=N)N)C(=O)N2CCC[C@H]2C(=O)N[C@@H](CCCCN)C(N)=O)[C@@H](C)CC)cc1; target = Oprk1; assay = GTPγS binding; conditions = 10 µM, cell membranes; inhibition = -2.5%
SMILES = CCN(Cc1ccccc1)C(=O)CCc1nc(CN2CCN(C(=O)Cc3ccc(OC)c(OC)c3)CC2)no1; target = SCN4A (Homo sapiens, UniProt P35499); assay = ion current, inhibitor, patch clamp; test system = HEK293; conditions = 10 µM; inhibition = 1.07%
SMILES = C[C@@]12CC[C@@H]3c4ccc(O)c(Cl)c4CC[C@H]3[C@@H]1CCC2=O; target = AKR1C2; assay = enzyme activity, inhibitor, absorbance; conditions = 100 µM; inhibition = 80%
SMILES = C[C@@](O)(C(F)F)[C@H](NC(=O)c1ccc(C#CC#CC2CC2)cc1)C(=O)NO; target = MMP14 (Homo sapiens, UniProt P50281); assay = enzyme activity, inhibitor; conditions = 30 µM; inhibition = ≤ 30%
SMILES = CC(=O)NC(Cc1ccc(Br)c(Cl)c1)C(=O)N[C@@H](C)C(=O)N1CCC[C@H]1C(=O)N1CCC[C@H]1C(=O)N[C@@H](CCC(=O)O)C(=O)N[C@@H](Cc1c[nH]cn1)C(=O)N[C@@H](CO)C(=O)N[C@H](C(=O)N[C@@H](C)C(N)=O)[C@@H](C)OP(=O)(O)O (some centres unmarked); target = CHEK1 (Homo sapiens, UniProt O14757); assay = enzyme activity, inhibitor; conditions = 10 µM; inhibition = 4.73%
SMILES = O=C(NCc1cccc(F)c1F)c1cn(Cc2ccc(F)cc2)cc(O)c1=O; target = Tripartite terminase subunit 3 C-terminal nuclease domain; assay = endonuclease activity, inhibitor, ELISA; conditions = 20 µM; inhibition = 8%
SMILES = O=C(O)/C=C/c1ccc(O)cc1; target = alpha-glucosidase; assay = enzyme activity; conditions = 125 µg/mL; inhibition = 51.1% and 53.4%
SMILES = O=C(C[P+]([Au-][Cl])(c1ccccc1)c1ccccc1)[O][Ti+2][O]C(=O)C[P+]([Au-][Cl])(c1ccccc1)c1ccccc1.c1cc[cH-]c1.c1cc[cH-]c1; target = MAPKAPK2 (Homo sapiens, UniProt P49137); assay = kinase activity; conditions = 10 µM; inhibition = ≥ 50%
SMILES = C[C@@H]1CCC2=C(CCCC2(C)C)[C@@]1(C)CC[C@H](CCCc1ccoc1)COS(=O)(=O)O; target = blaCMY-10 (Klebsiella aerogenes, UniProt Q99QC1); assay = enzyme activity, inhibitor, absorbance; conditions = 200 µM; inhibition = ~90%
SMILES = O=c1c(Nc2ccc(Br)cc2)c(NC2CCN(Cc3ccccc3)CC2)c1=O; target = ache; assay = enzyme activity, inhibitor, Ellman; conditions = 25 µM; inhibition = 42.9%
SMILES = c1ccc2nc(Nc3c4c(nc5ccccc35)CCCC4)ccc2c1; target = ache; assay = enzyme activity, inhibitor, Ellman; conditions = 50 µM; inhibition = 72.6%
SMILES = Nc1ccc(Nc2c(NC3CCN(Cc4ccccc4)CC3)c(=O)c2=O)cc1; target = ache; assay = enzyme activity, inhibitor, Ellman; conditions = 25 µM; inhibition = 77%
SMILES = COc1ccnc(Nc2c3c(nc4cc(C)ccc24)CCCC3)c1; target = ache; conditions = 100 µM; inhibition = 98.5 ± 3.77%
SMILES = C[C@]12CC[C@@H]3c4cc(Cl)c(O)c(Cl)c4CC[C@H]3[C@@H]1CCC2=O; target = AKR1C2; assay = enzyme activity, inhibitor, absorbance; conditions = 100 µM, pH 9; inhibition = 50%
SMILES = FC(F)(F)c1cccc(Nc2c3c(nc4ccccc24)CCCC3)c1; target = ache; assay = enzyme activity, inhibitor, Ellman; conditions = 100 µM; inhibition = 67.5%
SMILES = C[C@]12CCC[C@H]1[C@@H]1CCc3c(cc(Br)c(O)c3Br)[C@H]1CC2; target = AKR1C2; assay = enzyme activity, inhibitor, absorbance; conditions = 100 µM, pH 9; inhibition = 74.4%
SMILES = c1ccc2c(Nc3c4c(nc5ccccc35)CCCC4)cccc2c1; target = ache; assay = enzyme activity, inhibitor, Ellman; conditions = 100 µM; inhibition = 65.1%
SMILES = S=C(NCc1ccccn1)NCc1ccccn1; target = AMY2 (Sus scrofa, UniProt P00690); assay = enzyme activity, inhibitor; conditions = 500 µg/mL; inhibition = 57.8%
SMILES = CC(C)(C)c1ccc(Nc2c3c(nc4ccccc24)CCCC3)cc1; target = ache; assay = enzyme activity, inhibitor, Ellman; conditions = 100 µM; inhibition = 65%
SMILES = CCn1ccc(-c2cc(-c3cnn(C)c3)cc([C@@H](C)NC(=O)c3cc(OCCN(C)C)ccc3C)c2)n1; target = USP7; assay = Ub-AMC hydrolysis; conditions = up to 40 µM; inhibition = no inhibition
